Measured values of several laboratories.
Lines come from different studies, so protocols differ. Several values in a cell are separate wells, animals, samples, runs or records. Numbers after ± are the reported error.

SMILES	assay	test system	conditions	Cmax
COc1cc(C=CC(=O)OCC2OC(OC3C(c4c(OC)cc5oc(-c6ccc(O)cc6)cc(=O)c5c4O)OC(CO)C(O)C3O)C(O)C(O)C2O)ccc1O (stereo not drawn)	–	male Sprague-Dawley rat, PCPA-induced insomnia, plasma	oral, 6.8 g/kg	12.7 ± 4.03 ng/mL
C=C(c1cc(F)c(C(=O)O)c(F)c1)c1cc2c(cc1C)C(C)(C)CCC2(C)C	–	rat Sprague-Dawley male, plasma	oral, 100 mg/kg, sesame oil	2410 ng/mL
CC(=O)[CH](C(C)=O)[Pt-2]1([S+](C)C)[O]C(C)=CC(C)=[O+]1 (stereo not drawn)	item: platinum	rat, whole blood	intravenous, dose not given	68800 ng/mL
CN1CC[C@@H](NC(=O)Nc2ccc(C#N)cc2)C[C@@H]1c1nc2ccccc2[nH]1	item: total compound	moderate hepatic impairment, plasma	oral, 100 mg single dose, fasted, arithmetic mean	900 ng/mL
Cc1noc(C)c1Cn1cc(N2C(=O)CN(Cc3cccc(O[C@@H]4O[C@H](C(=O)O)[C@@H](O)[C@H](O)[C@H]4O)c3)C2=O)cn1	–	rat Sprague-Dawley male, plasma	oral, 100 mg/kg of parent drug	9090 ng/mL
C=C(c1ccc(C(=O)O)c(F)c1)c1cc2c(cc1C)C(C)(C)C=CC2(C)C	–	rat Sprague-Dawley male, plasma	oral, 100 mg/kg, sesame oil	18600 ng/mL
Cn1cc(C(N)=O)c(NC2C3CC4CC2CC(OS(=O)(=O)O)(C4)C3)c2ccnc1-2 (stereo not drawn)	–	Japanese adults, moderate hepatic impairment, plasma	oral, 150 mg single dose	110 ng/mL
Oc1ccc2ccccc2c1/N=N/c1ccc(/N=N/c2ccccc2)cc1	–	Sprague-Dawley rats both sexes, whole blood	oral, 50 mg/kg	349 ng/mL
CC(C)C[C@H](NC(=O)[C@H](CCCCN)NC(=O)CNC(=O)[C@H](CC(C)C)NC(=O)[C@@H](NC(=O)[C@@H]1CSSC[C@H](N)C(=O)N[C@@H](CO)C(=O)N[C@@H](CC(N)=O)C(=O)N[C@@H](CC(C)C)C(=O)N[C@@H](CO)C(=O)N[C@@H]([C@@H](C)O)C(=O)N1)C(C)C)C(=O)N[C@@H](CO)C(=O)N[C@@H](CCC(N)=O)C(=O)N[C@@H](CCC(=O)O)C(=O)N[C@@H](CC(C)C)C(=O)N[C@@H](Cc1c[nH]cn1)C(=O)N[C@@H](CCCCN)C(=O)N[C@@H](CC(C)C)C(=O)N[C@@H](CCC(N)=O)C(=O)N[C@H](C(=O)N[C@@H](Cc1ccc(O)cc1)C(=O)N1CCC[C@H]1C(=O)N[C@@H](CCCNC(=N)N)C(=O)N[C@H](C(=O)N[C@@H](CC(N)=O)C(=O)N[C@H](C(=O)NCC(=O)N[C@@H](CO)C(=O)NCC(=O)N[C@H](C(=O)N1CCC[C@H]1C(N)=O)[C@@H](C)O)[C@@H](C)O)[C@@H](C)O)[C@@H](C)O	ELISA	hairless male Sprague-Dawley rat, serum	intravenous, 3 µg	10.5 ± 7 ng/mL
N[C@H](COc1ccccc1C(F)(F)F)c1ccccc1	–	male Sprague-Dawley rat, serum	intravenous, 5 mg/kg	219 ± 15 ng/mL
NC(=O)c1cnc2[nH]ccc2c1NC1C2CC3CC1CC(OS(=O)(=O)O)(C3)C2 (stereo not drawn)	–	Japanese adults, moderate hepatic impairment, plasma	oral, 150 mg single dose	485 ng/mL
Cc1cc(O)c2c(c1)C(=O)c1cc(O)cc(O)c1C2=O.Cc1cc(O)c2c(c1)C(=O)c1cc(O)cc(O)c1C2=O.Cc1nc(C)c(C)nc1C	–	Sprague Dawley rat, plasma	oral, 100 mg/kg	428 ± 134 ng/mL
CCCCOc1nc(N)c2[nH]c(=O)n(CCCN(CCCN3CCOCC3)Cc3cccc(CC(=O)OC)c3)c2n1	–	rat, Brown Norway, plasma	intratracheal, 0.3 mg/kg, 5 min	2 nM
Cc1ncc2c(n1)CN(C(=O)Nc1nc(-c3cccs3)ccc1N)C2	–	male Sprague-Dawley rats	oral, 60 mg/kg daily, day 14	3760 ± 1160 ng/mL
Cc1noc(C)c1Cn1cc(N2C(=O)CN(Cc3cccc(OS(=O)(=O)O)c3)C2=O)cn1	–	rat Sprague-Dawley male, plasma	oral, 100 mg/kg of parent drug	6110 ng/mL
Cc1cc2c(NC(=O)N[C@@H]3CC(C)(C)Oc4cc(C(F)(F)F)ccc43)cccc2cn1	–	Sprague-Dawley rat, male, plasma	oral, 100 µmol/kg, 1 h, telemetry study	3100 ng/mL
NC(=O)/C=C/c1cccc(S(=O)(=O)Nc2ccccc2)c1	–	patients with moderate liver dysfunction, plasma	intravenous, 400 mg/m^2 belinostat, single 30 min infusion, cycle 1 day -7, mean	1640 ng/mL
CCCCCCCOc1ccc(CC[C@](N)(CO)COP(=O)(O)O)cc1C(F)(F)F	–	rat Sprague-Dawley male, heart	oral, 1 mg/kg	42 ng/g
CNc1cc(C(=O)Nc2ccc(Cl)cc2)ccc1OC	–	male Sprague-Dawley rats, serum	oral, 20 mg/kg	2690 ± 574 ng/mL
COC(=O)/C=C/C(=O)c1ccc(OC)cc1	–	Sprague-Dawley rat, both sexes, plasma	oral, 200 mg/kg	457 ± 110 ng/mL
COc1ccc(N2CCOCC2)c2sc(NC(=O)c3ccnc(CN4CCCC4)c3)nc12	–	Wistar rat, plasma (total)	oral, 45 mg/kg/day, 14 days	26400 ng/mL
CCCCC/C=C/C=C/C(=O)NCC(C)C	–	rat, sham-operated, plasma	oral, 50 mg/kg	227 ± 145 ng/mL
Cc1cc(CNCCCCCC(=O)NO)ccc1OCc1cccc(-c2ccccc2)c1C	–	Sprague-Dawley rat, plasma	intravenous, 10 mg/kg	3600 ng/mL
Oc1ccc2ccccc2c1/N=N/c1ccccc1	–	Sprague-Dawley rats both sexes, whole blood	oral, 50 mg/kg	631 ng/mL
CC/C=C\C/C=C\C/C=C\C/C=C\C/C=C\CCCCOC(CC)C(=O)O (stereo not drawn)	–	Wistar rat, male, mesenteric lymph	oral, 100 mg/kg	8400 ng/mL
O=C(O)/C=C/c1cccc(S(=O)(=O)Nc2ccccc2)c1	–	patients with moderate liver dysfunction, plasma	intravenous, 400 mg/m^2 belinostat, single 30 min infusion, cycle 1 day -7, mean	1830 ng/mL
CN1CCN(c2ccc(Nc3ncc(Cl)c(Nc4ccccc4P(C)(C)=O)n3)cc2Br)CC1	–	Sprague-Dawley rat, male, plasma	oral, 25 mg/kg	396 ng/mL and 372 ng/mL

Excerpt of the above:
SMILES	assay	test system	conditions	Cmax
CCCCC/C=C/C=C/C(=O)NCC(C)C	–	rat, sham-operated, plasma	oral, 50 mg/kg	227 ± 145 ng/mL
Cc1cc(CNCCCCCC(=O)NO)ccc1OCc1cccc(-c2ccccc2)c1C	–	Sprague-Dawley rat, plasma	intravenous, 10 mg/kg	3600 ng/mL
